Assay results from different studies.
Protocols differ between the studies behind these lines. Several values in a cell are separate wells, animals, samples, runs or records.
Cell line: MCF7

| Compound | test | setting | scale | measurement | result |
| --- | --- | --- | --- | --- | --- |
| CCC1(c2ccc(NC(=O)CCC(=O)OC3OC4OC5(C)CCC6C(C)CCC(C3C)C46OO5)cc2)CCC(=O)NC1=O (mixture of isomers) | cell growth or viability, CCK-8 |  |  | IC50 | > 50 µM |
| CC1OC2OC3C4=C(OC3(C)C12O)C(=O)c1c(O)cccc1C4=O (stereo not shown) | sulforhodamine B | 10 µg/mL, 48 h | negative means cell kill | growth percent | -90.6% |
| CC(C)Cc1ccc(C(C)C(=O)[O-])cc1.CC(C)Cc1ccc(C(C)C(=O)[O-])cc1.[Cu+2].c1ccncc1.c1ccncc1 (stereo not shown) | cell growth or viability, MTT | 48 h |  | GI50 | 23 µM |
| CNC(=S)NCCCC[C@H](NC(=O)CCc1ccccc1)C(=O)N[C@@H](CCCNC(=N)N)C(=O)N[C@@H](CC1CCCCC1)C(=O)N[C@H](CCCCN)C(=O)N[C@@H](CC1CCCCC1)C(N)=O | cell growth or viability, MTT | 72 h |  | EC50 | 58.3 µM |
| Cc1ccc(CC(=O)N2CCN(CC(OCc3ccc4ccccc4c3)c3ccc(Cl)cc3Cl)CC2)cc1 (stereo not shown) | cell growth or viability, MTT | 24 h |  | IC50 | 29.3 µM |
| CC[C@H](C)[C@H](NC(=O)CNC(=O)[C@H](Cc1ccc(O)cc1)NC(=O)[C@H](CO)NC(=O)[C@H](Cc1ccc(O)cc1)NC(=O)[C@@H](NC(=O)[C@H](CC(=O)O)NC(=O)[C@H](CO)NC(=O)[C@H](CCC(N)=O)NC(=O)[C@H](Cc1ccccc1)NC(=O)[C@H](CO)NC(=O)[C@H](Cc1ccccc1)NC(=O)[C@@H]1CCCN1C(=O)[C@H](CC(N)=O)NC(=O)[C@H](CC(N)=O)NC(=O)[C@H](CC(=O)O)NC(=O)[C@H](CCC(N)=O)NC(=O)[C@@H]1CCCN1C(=O)[C@H](CCCNC(=N)N)NC(=O)[C@H](CCCNC(=N)N)NC(=O)[C@H](CCCNC(=N)N)NC(=O)[C@H](CCC(N)=O)NC(=O)[C@H](CCCNC(=N)N)NC(=O)[C@H](CCCNC(=N)N)NC(=O)[C@H](CCCCN)NC(=O)[C@H](CCCCN)NC(=O)[C@H](CCCNC(=N)N)NC(=O)CN)C(C)C)C(=O)N[C@H](C(=O)N[C@@H](CC(C)C)C(N)=O)C(C)C | immunoblot densitometry, refers to: phospho-MEK1/2 Ser217/221 | 1 µM, 48 h, unit not given | reference: 0 µM | phospho-MEK1/2 level | 1.66 and 1.38 |
| CC(C)(C)C(=O)OCOP(=O)(OCOC(=O)C(C)(C)C)C1CCCN(O)C1=O (stereo not shown) |  |  |  | log LC50 | -4.08 log M |
| C[C@H]1[C@H](OC(=O)CCC(=O)OCCC2CCN(CC(=O)Nc3ccc([N+](=O)[O-])c(C(F)(F)F)c3)CC2)O[C@@H]2O[C@@]3(C)CC[C@H]4[C@H](C)CC[C@@H]1[C@@]24OO3 | cell growth or viability, CCK-8 |  |  | IC50 | > 50 µM |
| O=C(N[C@H](Cc1ccccc1)C(=O)N[C@H](Cc1ccccc1)C(=O)N[C@@H](Cc1ccc(OP(=O)(O)O)cc1)C(=O)O)OCC1c2ccccc2-c2ccccc21 | mitochondrial membrane potential, flow cytometry | 10 µM, 48 h |  | high-TMRM cells | 91.5% |
| Cc1ccc2c(Cl)cc(Cl)c([O-])c2n1.Cc1ccc2c(Cl)cc(Cl)c([O-])c2n1.[Co+2].c1cnc2c(c1)c1nccnc1c1cccnc12 | cell growth or viability, MTT | 48 h |  | IC50 | 5.16 µM |
